Earlier results that unrelated publications cite.
± marks the error that the study gave. In brackets after ≈: the same amount, converted by molar mass.
Chain of UniProt Q9NRM7 (whole entry, looked up): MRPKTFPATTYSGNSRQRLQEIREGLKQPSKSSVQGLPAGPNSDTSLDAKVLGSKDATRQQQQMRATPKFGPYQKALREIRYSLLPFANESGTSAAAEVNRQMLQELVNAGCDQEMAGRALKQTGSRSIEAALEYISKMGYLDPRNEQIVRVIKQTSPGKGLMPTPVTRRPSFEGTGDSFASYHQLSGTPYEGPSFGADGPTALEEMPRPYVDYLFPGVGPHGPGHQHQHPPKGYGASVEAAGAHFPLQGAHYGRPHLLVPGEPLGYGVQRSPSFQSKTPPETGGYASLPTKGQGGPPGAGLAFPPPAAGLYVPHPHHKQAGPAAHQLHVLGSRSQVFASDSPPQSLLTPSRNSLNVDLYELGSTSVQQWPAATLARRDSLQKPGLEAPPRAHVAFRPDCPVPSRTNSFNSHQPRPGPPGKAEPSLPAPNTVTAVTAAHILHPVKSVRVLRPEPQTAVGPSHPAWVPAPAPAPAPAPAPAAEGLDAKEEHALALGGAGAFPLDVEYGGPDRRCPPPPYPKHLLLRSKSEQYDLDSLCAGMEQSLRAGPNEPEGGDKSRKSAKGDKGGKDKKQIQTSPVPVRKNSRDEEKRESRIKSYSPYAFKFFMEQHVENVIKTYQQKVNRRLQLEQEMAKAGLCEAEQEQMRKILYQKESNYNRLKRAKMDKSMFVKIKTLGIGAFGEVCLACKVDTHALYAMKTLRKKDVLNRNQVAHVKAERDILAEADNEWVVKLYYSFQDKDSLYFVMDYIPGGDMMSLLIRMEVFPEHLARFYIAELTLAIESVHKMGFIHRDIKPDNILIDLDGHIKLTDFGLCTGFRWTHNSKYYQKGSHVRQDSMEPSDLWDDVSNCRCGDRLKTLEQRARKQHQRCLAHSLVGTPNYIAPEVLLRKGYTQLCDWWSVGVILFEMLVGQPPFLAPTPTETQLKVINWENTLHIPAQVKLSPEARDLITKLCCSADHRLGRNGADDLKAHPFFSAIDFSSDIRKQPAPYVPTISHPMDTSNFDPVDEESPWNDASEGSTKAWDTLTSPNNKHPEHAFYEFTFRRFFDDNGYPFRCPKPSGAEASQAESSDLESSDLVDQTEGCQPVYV

| Compound | target or system | assay | system | conditions | how to read | measurement | result |
| --- | --- | --- | --- | --- | --- | --- | --- |
| COc1cc2c(Oc3ccc4[nH]c(C)cc4c3F)ccnc2cc1OCC1(N)CC1 | – | – | metastatic soft tissue sarcoma patients | dose not given, placebo-controlled, drug arm | – | progression-free survival | 4.8 months |
| CC(c1cc2ccccc2s1)N(O)C(N)=O (centres unmarked) | – | – | Sprague Dawley rat | dose not given, 10 days, added: vancomycin | – | nephrotoxicity incidence | < 10% |
| CN1CC[C@H](c2c(O)cc(O)c3c(=O)cc(-c4ccccc4Cl)oc23)[C@H](O)C1 | – | – | patients with CLL | dose not given | – | partial remission rate | 25 to 40% |
| CC(=O)c1cnccn1 | – | – | human, water | – | – | odour detection threshold | 62 µg/kg |
| Nc1cc(C(F)(F)F)c(-c2nc(N3CCOCC3)nc(N3CCOCC3)n2)cn1 | LATS2 (Homo sapiens, UniProt Q9NRM7) | enzyme activity | – | 10 µM | reference: untreated | remaining activity | 100% |
| COC[C@@H](c1ccc(C(F)(F)F)cc1)N1CCN(C2(C)CCN(C(=O)c3c(C)ncnc3C)CC2)C[C@@H]1C | – | – | treatment-naive HIV patients | 10 mg twice daily, day 14, monotherapy without ritonavir | – | HIV RNA reduction | 1.08 log copies/mL |
| Nc1cccc2c1C(=O)N(C1CCC(=O)NC1=O)C2=O (centres unmarked) | – | – | relapsed refractory multiple myeloma patients | dose not given, independent adjudication | – | partial response or better rate | 9% |
| O=C(CCCCCCc1ccccc1)c1ncc(-c2ccccn2)o1 | – | refers to: AEA, OEA, PEA | mouse | 50 mg/kg, maximum 1 h | – | duration of lipid amide increase | 1 h |
| Cn1c(=O)oc2ccc(-c3ccc(C[C@@H](C#N)NC(=O)[C@@H]4CNCCCO4)cc3)cc21 | – | – | human patients, trial | dose not given | reference: placebo | pulmonary exacerbations | decreased |
| OCc1ccc(O[C@@H]2O[C@H](CO)[C@@H](O)[C@H](O)[C@H]2O)cc1 | – | – | human surgical patients | iv infusion, 600 mg twice daily | reference: placebo | relative risk of delirium | 0.54 |
| OC[C@H]1O[C@H](O[C@]2(CCl)O[C@H](CCl)[C@@H](O)[C@@H]2O)[C@H](O)[C@@H](O)[C@H]1Cl | – | sensory evaluation | human sensory panel, water | – | reference: sucrose | sweetness potency | 600 × sucrose |
| Cc1nccnc1C | – | – | human, water | – | – | odour detection threshold | 2500 µg/kg |
| COc1cc(NC(=O)CCN2CCC(OC(=O)Nc3ccccc3-c3ccccc3)CC2)c(Cl)cc1CNC[C@H](O)c1ccc(O)c2[nH]c(=O)ccc12 | – | – | COPD patients | inhaled, 200 µg twice daily, 12 h postdose, dosing day 1 | reference: baseline | placebo-corrected trough FEV1 change | 136 mL |
| Cc1ccc(Nc2nccc(N(C)c3ccc4c(C)n(C)nc4c3)n2)cc1S(N)(=O)=O | – | – | Chinese patients, advanced soft tissue sarcoma | dose not given, retrospective study | – | objective response rate | 31% |
| CC1(C)S[C@@H]2[C@H](NC(=O)[C@H](N)c3ccccc3)C(=O)N2[C@H]1C(=O)O | Escherichia coli | – | clinical isolate RKI-No_443/16 | – | – | MIC | > 16 µg/mL |
| NC(=S)NN=Cc1ncccc1N | – | – | cervical cancer patients | dose not given, 3 years, randomized phase II, added: IV cisplatin plus radiation | – | progression-free survival | 92% |
| CCNCCc1ccc(CN(CC)c2cc(OC)ccc2[C@@H]2CCc3cc(O)ccc3C2)cc1 | – | – | human, ER-positive HER2-negative breast cancer, ESR1 mutation | concentration not given | – | clinical benefit rate | 25% |
| CC1(C)CCC(CN2CCN(c3ccc(C(=O)NS(=O)(=O)c4ccc(NCC5CCOCC5)c([N+](=O)[O-])c4)c(Oc4cnc5[nH]ccc5c4)c3)CC2)=C(c2ccc(Cl)cc2)C1 | – | – | human, AML | concentration not given, added: low-dose cytarabine | – | CR with partial hematologic recovery rate | 21% |
| COC(=O)C1=C(C)NC(C)=C(C(=O)OC)C1c1c(C)nc2sc(Cl)cn12 | – | calcium-induced contraction | guinea pig aortic strip | 50 µM, added: K+ 80 mM depolarisation | – | inhibition | 24 ± 1.8% |
| CC(=O)O.NC(=O)c1cnc(N[C@@H]2CCCC[C@@H]2N)nc1Nc1cccc(-n2nccn2)c1 | – | hind paw inflammation | rat, collagen-induced arthritis | 5 mg/kg | – | inhibition | 31% |
| CNC(C)C1CCC(N)C(OC2C(N)CC(N)C(OC3OCC(C)(O)C(NC)C3O)C2O)O1 (centres unmarked) | Escherichia coli | – | clinical isolate RKI-No_462/16 | – | – | MIC | 1 µg/mL (≈ 2.09 µM) |
| CNC[C@H](O)[C@@H](O)[C@H](O)[C@H](O)CO.O=C([O-])CN1CCN(CC(=O)[O-])CCN(CC(=O)O)CCN(CC(=O)[O-])CC1.[Gd+3] | – | – | human plasma | 310 K, 0.47 T | – | relaxivity r1 | 4.5 mM⁻¹ s⁻¹ |
| C[N+]1(C)CCC(OC(=O)C(O)(c2ccccc2)C2CCCC2)C1 (centres unmarked) | – | – | COPD patients | inhaled, 100 µg once daily, 24 h postdose, dosing day 1 | reference: baseline | placebo-corrected trough FEV1 change | 133 mL |

Excerpt of the above:
| Compound | target or system | assay | system | conditions | how to read | measurement | result |
| --- | --- | --- | --- | --- | --- | --- | --- |
| Cc1nccnc1C | – | – | human, water | – | – | odour detection threshold | 2500 µg/kg |
